Results gathered from unrelated publications.
Compare with care: the assays were run in different laboratories. ± gives the spread as reported.

For CC(C)C[C@@H](NC(=O)[C@@H](CCCCN)NC(=O)CNC(=O)CNC(=O)[C@@H]1CSSC[C@H](N)C(=O)NCC(=O)N[C@@H](CCCNC(=N)N)C(=O)N[C@@H](CCCNC(=N)N)C(=O)N[C@@H](C)C(=O)NCC(=O)NCC(=O)N[C@@H](CO)C(=O)N1)C(=O)N[C@H](C)C(=O)N[C@H](CCCCN)C(=O)N[C@H](CC(C)C)C(=O)N[C@H](C)C(=O)N[C@H](CCCCN)C(=O)N[C@H](CCCCN)C(=O)N[C@H](CC(C)C)C(=O)N[C@H](C)C(=O)N[C@H](CCCCN)C(=O)N[C@H](CC(C)C)C(=O)N[C@H](C)C(=O)N[C@H](CCCCN)C(=O)O, the AUC was 26800 ng·h/mL (cynomolgus monkey, plasma; intravenous, 9 mg/kg, infusion).
O=C(Oc1nsnc1N1CCOCC1)c1ccccc1 gave a hydrolysis of roughly 50% (DMSO; concentration not given, 10 days).
With CC[C@H](C)C(=O)N1CCC(NC(=O)Nc2ccc(OC(F)(F)F)c(F)c2)CC1 the AUC(0-t) was 3100 ng·h/mL (human, fasted, plasma; oral, 8 mg, single dose, geometric least-squares mean).
CC(C)C[C@@H](N)C(=O)NCC(=O)N[C@H](C)C(=O)N[C@H](CO)C(=O)N[C@H](Cc1c[nH]c2ccccc12)C(=O)N[C@H](Cc1c[nH]cn1)C(=O)N[C@H](CCCNC(=N)N)C(=O)N1CCC[C@@H]1C(=O)N[C@H](CC(=O)O)C(=O)N[C@H](CCCCN)C(=O)N[C@H](CS)C(=O)N[C@H](CS)C(=O)N[C@H](CC(C)C)C(=O)NCC(=O)N[C@H](Cc1ccc(O)cc1)C(=O)N[C@H](CCC(N)=O)C(=O)N[C@H](CCCCN)C(=O)N[C@H](CCCNC(=N)N)C(=O)N1CCC[C@@H]1C(=O)N[C@H](CC(C)C)C(=O)N1CCC[C@@H]1C(N)=O gave an accuracy of 99.8% (LC-MS/MS; rat plasma extract; 5000 ng/mL, 4 h, 8 °C, autosampler storage; reference: nominal).
With Cc1ncc2c(n1)CN(C(=O)Nc1nc(-c3cccs3)ccc1N)C2 the NOAEL was 45 mg/kg (general toxicity; male Sprague-Dawley rat; oral, multiple doses, once daily).
CC(C)[C@H](NC(=O)CNC(=O)[C@H](CCC(N)=O)NC(=O)[C@H](C)N)C(=O)O: “discontinued due to adverse events” 0% (human; intravenous infusion, 15 mg/kg/h, 2 h infusion).
With Cc1ccnc(-c2cc(C)ccn2)c1.O.[C-]#[O+].[C-]#[O+].[C-]#[O+].[Re+] the capacity factor was 0.66 (RP-HPLC C18 column, refers to: free diimine ligand; MeCN:water 40:60, 0.1% TFA; isocratic elution).
CC(C)(CCCC/C=C/CCCCCC(C)(C)C(=O)O)C(=O)O — result for “plasma AST and ALT”: “decreased” (rhesus monkeys, spontaneous hyperlipidemia, plasma; 20 mg/kg, 2 weeks).
With C[C@H]1N=C(c2ccccc2F)c2cc(Br)ccc2-n2cnc(C(=O)OC3O[C@H](C(=O)O)[C@@H](O)[C@H](O)[C@H]3O)c21 (stereo partly shown) the cumulative excretion was 0.1 ± 0.04% (LC-MS/MS; Swiss Webster mouse, female, urine; intravenous, 250 µg parent drug, 24 to 48 h).
CC[C@H](C)[C@H](NC(=O)[C@H](CCCNC(=N)N)NC(=O)[C@H](CCCNC(=N)N)NC(=O)[C@H](CC(C)C)NC(=O)[C@H](Cc1c[nH]c2ccccc12)NC(=O)[C@H](CCCCN)NC(=O)[C@H](CCCNC(=N)N)NC(=O)[C@H](CCCCN)NC(=O)[C@H](CCCNC(=N)N)NC(=O)[C@H](CCCNC(=N)N)NC(=O)CN)C(=O)NCC(=O)N[C@@H](CCCCN)C(=O)NCC(=O)N[C@H](C(=O)N[C@@H](CCCCN)C(=O)N[C@H](C(=O)N[C@H](C(=O)NCC(=O)NCC(=O)N[C@@H](C)C(=O)N[C@@H](C)C(=O)N[C@@H](CC(C)C)C(=O)N[C@@H](CC(=O)O)C(=O)N[C@@H](Cc1c[nH]cn1)C(=O)N[C@@H](CC(C)C)C(N)=O)[C@@H](C)CC)[C@@H](C)CC)C(C)C — result for “acute toxic concentration”: 5 to 25 µg/mL (zebrafish embryos; 1 h, 4, 28, 52 hpf).

A few entries again:
CC(C)[C@H](NC(=O)CNC(=O)[C@H](CCC(N)=O)NC(=O)[C@H](C)N)C(=O)O: “discontinued due to adverse events” 0% (human; intravenous infusion, 15 mg/kg/h, 2 h infusion).
